Published values of several laboratories.
A part holds a random share of what one study measured.

Sample 1
Target: Sal-like protein 4, full length isoform B (SALL4, Homo sapiens, UniProt Q9UJQ4-2, residues 1-616)
Method: universal PBM
Molecule type: double-stranded DNA, one strand shown
Medium: in vitro
Concentration: not given
Setting: 8-mer, flanks averaged, mean of replicates
Reading: higher = stronger binding
Endpoint: E-score
Target sequence (chain): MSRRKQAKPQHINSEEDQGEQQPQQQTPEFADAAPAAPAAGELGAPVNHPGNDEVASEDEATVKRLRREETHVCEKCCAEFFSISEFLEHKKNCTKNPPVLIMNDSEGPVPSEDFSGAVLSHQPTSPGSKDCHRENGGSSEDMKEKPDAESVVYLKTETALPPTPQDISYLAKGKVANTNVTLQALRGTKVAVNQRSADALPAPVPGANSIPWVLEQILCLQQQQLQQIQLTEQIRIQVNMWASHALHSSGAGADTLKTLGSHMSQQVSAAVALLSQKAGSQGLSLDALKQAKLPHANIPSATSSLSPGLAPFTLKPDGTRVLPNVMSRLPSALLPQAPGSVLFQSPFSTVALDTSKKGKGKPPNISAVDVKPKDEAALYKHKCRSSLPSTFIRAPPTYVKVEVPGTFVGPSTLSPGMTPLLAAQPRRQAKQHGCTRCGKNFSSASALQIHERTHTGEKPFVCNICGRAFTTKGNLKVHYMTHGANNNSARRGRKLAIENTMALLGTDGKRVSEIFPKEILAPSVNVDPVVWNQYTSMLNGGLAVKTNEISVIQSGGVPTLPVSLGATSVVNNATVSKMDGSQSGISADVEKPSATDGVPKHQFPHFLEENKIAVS
CAATATCA: 0.342
CTTTCCGC: -0.241
ACGACCGG: -0.222
CACAGAAA: 0.024
GCGGAAGA: -0.095
ATCCCCCA: -0.0659

Sample 2
Target: POU domain, class 5, transcription factor 1, POU domain (Pou5f1, Mus musculus, UniProt P20263, residues 131-289)
Sequence of UniProt P20263 (131-289, looked up): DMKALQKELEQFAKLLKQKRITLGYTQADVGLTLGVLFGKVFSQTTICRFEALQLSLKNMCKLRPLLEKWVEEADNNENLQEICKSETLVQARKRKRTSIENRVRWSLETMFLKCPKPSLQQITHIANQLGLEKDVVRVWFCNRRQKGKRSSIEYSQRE
Method: Spec-seq
Molecule type: double-stranded DNA, one strand shown
Medium: in vitro
Concentration: not given
Setting: whole probe, mean of replicates
Baseline: not given
Reading: lower = stronger binding
Endpoint: relative binding energy
All sequences stand within: GAGTCGTCTCGTCAGCAC … TCCGTAGAGCACTCAGGTC
ATGCAGT: 0.174 ln ratio
ATGCGTA: -0.204 ln ratio
ATCTTGA: 0.628 ln ratio
TACTTAA: 0.379 ln ratio
CAGGTAA: 0.992 ln ratio
ATACTTA: -0.248 ln ratio

Sample 3
Target: RNA binding protein fox-1 homolog 2, RRM domain, GST-SBP tag (RBFOX2, Homo sapiens, UniProt O43251-10, residues 100-194)
Method: RNA Bind-n-Seq
Molecule type: RNA
Medium: in vitro
Concentration: 365 nM
Setting: natural RNA segment, single round, ends assumed
Baseline: no-protein control
Reading: higher = stronger binding
Endpoint: RBNS enrichment (R)
All sequences stand within: GGGAGUUCUACAGUCCGACGAUC … UGGAAUUCUCGGGUGCCAA
Construct (chain): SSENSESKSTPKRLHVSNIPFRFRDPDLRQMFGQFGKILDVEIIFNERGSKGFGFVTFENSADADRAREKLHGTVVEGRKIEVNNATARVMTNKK
CUCGCGUGUCAAUGUGGUCAUGGUUCAUGAAACCGGACCCUCAAGAUGGAUGAUUGCUUUUAACUACUGCCAGCUGAUGUCUCUCAGCCCCUGCCCUCAUACAAGAUUUU: 0.394
AAUUUUUGACUUCCCUAUUUCAGAGAUAGUCAAUAUAAUAUGUUUAUCUAUAUCCAUAUGGAUGGAUAGGUAGGUAGAUCUUCAUAGAUUUUUUUUUCUUUUGUUAGAGG: 0.575
UUUAAGAAAAACAAUGUUAAUAUAAAAUUAGGUACAGGGUCUUGGAAGGGGCCCUGAAGAUUAAGCUUCCUUAGCGUCACAAUAAGUCCGUAUCUGGUUGCAAUUGAAAA: 0.668
CUACCUCCUGGCUUCUCUCCCUGCUGACGUGGCUCUUGUCCUGGAGCAGAGCAGUGCGUUGUUGGGAGAUGGAAAGUCUAUGCGUGGGUACCCUGUCUUCUUGCCUGUGG: 0.803
AAAAAUUCAAUUAUCCGAUUGUAUUUAACAUCUUUAAGAGCAUGAUCAUAAAGAGCUAUUUUUGACACCCCCCCCCCACUUUUUUAACAUUUAGAGUUAGUAAGGGUUUU: 6.79
ACUGGGUCUUGUCUAUCUUGAUGGAGAAGAGGGGUUCCUGCCCAGGAUCUUACAACACAGCAAGUAGCAUAGAGCUCUUUCCUUCCUCUUUUUUGGGGAGGUUGGGGUCA: 0.505
CUGUCUAUGUAUCUUAAUCACAAAUGGUUUCAUUCACUUUACUUUUAAAAAUUUGUCCUUAAAUGAAUAAAUAAAAUAAAAGUUGGUCCUGUGAGAGGAUAAUGAAGAUG: 0.305
CAAAGUACAGAUUUUUUACAUUUUAGAGGAAGAGCACCUUGUAUAGUAAGUCUAAGUCAAGCAAGACUUUGUGAAUUUGUGACAAGUUUGCACUUACAAAAUCAUGUAAA: 0.753

Single results of other studies
PhoQ, residues 284 288 289 292 302 303 TLASMF  fold induction (PhoP, residues 12 14 15 18 19 NQAHL (Escherichia coli, UniProt P23836); Sort-seq, item: YFP reporter; E. coli; PhoQ-PhoP variant library, with: 10 µM Mg2+; baseline: high Mg2+ state, higher = stronger signaling): 5.71

Some of these lines once more (single results of other studies):
PhoQ, residues 284 288 289 292 302 303 TLASMF  fold induction (PhoP, residues 12 14 15 18 19 NQAHL (Escherichia coli, UniProt P23836); Sort-seq, item: YFP reporter; E. coli; PhoQ-PhoP variant library, with: 10 µM Mg2+; baseline: high Mg2+ state, higher = stronger signaling): 5.71
